Results of several laboratories.
Every numbered part comes from another study and shows a few of its results, in no order. Positions count from the first letter of the parent shown.

Set 1
Target: Interferon regulatory factor 5, full length, phosphomimetic (IRF5, Homo sapiens, UniProt Q13568-2, residues 1-514, K96S/S451D/S453D/S456D/S462D)
Method: protein-binding microarray
Molecule type: double-stranded DNA, one strand shown
Matrix: in vitro
Tested at: 250 nM
Setting: 60-bp whole probe
Together with: salmon DNA 0.4 mg/ml
Relative to: random background probes
Direction: higher = stronger binding
Constant ends, left off below: GCCTAGCAC … GTCTTGATTCGCTTGACGCTGCTG
With `TTAGTTTCCGGTTTCGGTTAGTGCTAG` the log fluorescence was 9.75 z-score.
`AGCACTTTGGCATGTCTTGACGTGCTA` gave a log fluorescence of -0.764 z-score.
The log fluorescence of `GACGCTATCGGGTATCGGGACGTGCTA` is reported as 3.52 z-score.
The log fluorescence of `TCAGAACTGGGGTATCGATTAGTGCTA` is reported as 2.26 z-score.
`GAAGGTCTCCTTATCCTGACGTGCTAG` gave a log fluorescence of -0.415 z-score.
For `GTCCTTTTCTTTACTGATGGGTGCTAG`, the log fluorescence was 0.427 z-score.
`TGACAGAGTGAGGTTTGGGCGTGCTAG` gave a log fluorescence of -0.745 z-score.
The log fluorescence of `ACTAGTTTCTTTTCTTTTCTGTGCTAG` is reported as 4.01 z-score.
The log fluorescence of `GACGATTTCAGACTCGAGACGTGCTAG` is reported as 0.256 z-score.
`TTAGATATCAGTATCGGTTAGTGCTAG` gave a log fluorescence of 8.11 z-score.
`AGAAACTTGTATTTGTCCCTGTGCTAG` gave a log fluorescence of 1.93 z-score.
The log fluorescence of `GACGGTTTCGACTATCGGGGCGTGCTA` is reported as 6.92 z-score.

Set 2
Target: ABI1, truncated, D143A, DHFR fusion (Arabidopsis thaliana)
Method: DHFR PCA, deep sequencing
Matrix: yeast
Setting: methotrexate growth selection, single substitutions
Together with: (+)-ABA 2500 µM
Relative to: wild-type fitted maximum
Direction: higher = stronger binding
Starting sequence: PYL1, truncated, DHFR fusion (Arabidopsis thaliana); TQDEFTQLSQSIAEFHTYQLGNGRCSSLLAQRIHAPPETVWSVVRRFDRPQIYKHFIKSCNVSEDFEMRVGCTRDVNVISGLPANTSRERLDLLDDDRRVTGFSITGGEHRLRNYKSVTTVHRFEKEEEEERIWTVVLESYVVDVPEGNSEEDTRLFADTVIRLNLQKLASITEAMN
For `F47P`, “relative binding score” read 9.64%.
Under “relative binding score”, `T119F` is recorded as 78.3%.
`V76P` — result for “relative binding score”: 15.2%.
`E125P` — result for “relative binding score”: 101%.
For `V78I`, “relative binding score” read 96.9%.
`H122P` — result for “relative binding score”: 22.3%.
For `R113C`, “relative binding score” read 105%.
Under “relative binding score”, `R88H` is recorded as 103%.
`Y115Q` — result for “relative binding score”: -6.55%.
Under “relative binding score”, `V137C` is recorded as 95.4%.
Under “relative binding score”, `V76F` is recorded as 57%.
For `E151T`, “relative binding score” read 94%.
`P36T`: “relative binding score” 94.5%.
For `E129G`, “relative binding score” read 105%.
`R49I`: “relative binding score” 85.6%.
`A170Y`: “relative binding score” 58.8%.
`Q31N` — result for “relative binding score”: 86.3%.
`N114Y`: “relative binding score” 72.6%.
Under “relative binding score”, `Q7I` is recorded as 78.1%.

Set 3
Target: CCND2, cyclin fold, Cln2 fusion (human)
Method: yeast growth competition, sequencing
Matrix: yeast
Setting: weak parent motif
Relative to: not given
Direction: higher = stronger binding
Starting sequence: E2F3 docking peptide (human); PPAKRRLELGESG; partner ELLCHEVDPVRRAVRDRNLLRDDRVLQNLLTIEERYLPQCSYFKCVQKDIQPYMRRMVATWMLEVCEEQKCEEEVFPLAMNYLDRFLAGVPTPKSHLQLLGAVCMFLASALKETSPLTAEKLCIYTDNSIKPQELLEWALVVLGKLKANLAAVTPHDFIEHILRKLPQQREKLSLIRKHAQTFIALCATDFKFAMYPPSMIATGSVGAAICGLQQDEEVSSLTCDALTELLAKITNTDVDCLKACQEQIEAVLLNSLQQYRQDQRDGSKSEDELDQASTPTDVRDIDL
`E8A`: “normalised enrichment score” 0.11.
`R5A L7A` — result for “normalised enrichment score”: 0.0978.
Under “normalised enrichment score”, `L7A` is recorded as 0.259.
`R5K L9F`: “normalised enrichment score” 0.634.
`R5A` — result for “normalised enrichment score”: -0.219.
For `R6A`, “normalised enrichment score” read 0.305.
`G10A` — result for “normalised enrichment score”: 0.377.
Under “normalised enrichment score”, `R5K` is recorded as -0.57.
For `L9A`, “normalised enrichment score” read 0.452.

Further values, each from its own experiment
With `PhoQ, residues 284 288 289 292 302 303 HSYLQF` the fold induction was 0.939 (PhoP, residues 12 14 15 18 19 NQAHL (Escherichia coli, UniProt P23836); Sort-seq, item: YFP reporter; E. coli; PhoQ-PhoP variant library, together with: 10 µM Mg2+; relative to: high Mg2+ state, higher = stronger signaling).
